Results pooled from the literature.
Each line is one published result; not all experiments were run side by side. In brackets after ≈: the same amount, converted by molar mass.
Organism: herpes simplex virus 1

The EC90 of `CCCCCCC(CC=CCCCCCCCC(=O)OCCOCn1cnc2c(=O)[nH]c(N)nc21)OC(=O)CCCCC1SCC2NC(=O)NC21` (centres unmarked) is reported as 21.9 µM (viral replication, plaque reduction; HFF, E-377).
`Cc1cn(C2CC(N(C)C)C(CO)O2)c(=O)[nH]c1=O` (centres unmarked) gave an EC50 of > 0.37 µM (viral replication; HEL, TK- KOS ACV-resistant).
The IC50 of `NCCCCCO[C@H]1O[C@H](COS(=O)(=O)O)[C@@H](O[C@@H]2O[C@@H](C(=O)O)[C@@H](O[C@H]3O[C@H](COS(=O)(=O)O)[C@@H](O[C@@H]4O[C@@H](C(=O)O)[C@@H](O[C@H]5O[C@H](COS(=O)(=O)O)[C@@H](O[C@@H]6O[C@@H](C(=O)O)[C@@H](O[C@H]7O[C@H](COS(=O)(=O)O)[C@@H](O[C@@H]8O[C@@H](C(=O)O)[C@@H](O)[C@H](O)[C@H]8OS(=O)(=O)O)[C@H](O)[C@H]7NS(=O)(=O)O)[C@H](O)[C@H]6OS(=O)(=O)O)[C@H](O)[C@H]5NS(=O)(=O)O)[C@H](O)[C@H]4OS(=O)(=O)O)[C@H](O)[C@H]3NS(=O)(=O)O)[C@H](O)[C@H]2OS(=O)(=O)O)[C@H](O)[C@H]1NS(=O)(=O)O` is reported as 42 µg/mL (≈ 17.4 µM) (viral spread; human corneal epithelial cells, GFP reporter; 24 h, added 2 h post infection).
`Cc1cc(O)c(=O)c(O)c(O)c1C(=O)c1ccc(-c2ccccc2)cc1` gave an EC50 of ~0.05 µM (viral replication).
For `CC(C)OC(=O)[C@H](Cc1ccccc1)NP(=O)(COCCn1cnc2c(=O)[nH]c(=O)[nH]c21)N[C@@H](Cc1ccccc1)C(=O)OC(C)C`, the EC50 was > 100 µM (cytopathic effect; HEL, KOS TK- acyclovir-resistant).
`O=C(Cc1csc2nc(-c3ccc(Br)cc3)cn12)NN=C1CCCC1` has an EC50 of > 100 µg/mL (viral cytopathicity, microscopy; HEL, acyclovir-resistant).
With `CCOC(=O)[C@@H](C)NP(=O)(CO[C@H](CF)CN1CNC(N)=NC1=O)N[C@H](C)C(=O)OCC` the EC50 was > 100 µM (cytopathic effect; HEL, KOS, TK-deficient, acyclovir-resistant).
For `NCCCCCO[C@H]1O[C@H](COS(=O)(=O)O)[C@@H](O[C@@H]2O[C@@H](C(=O)O)[C@@H](O[C@H]3O[C@H](COS(=O)(=O)O)[C@@H](O[C@@H]4O[C@@H](C(=O)O)[C@@H](O[C@H]5O[C@H](COS(=O)(=O)O)[C@@H](O[C@@H]6O[C@@H](C(=O)O)[C@@H](O)[C@H](O)[C@H]6OS(=O)(=O)O)[C@H](O)[C@H]5NS(=O)(=O)O)[C@H](O)[C@H]4OS(=O)(=O)O)[C@H](O)[C@H]3NS(=O)(=O)O)[C@H](O)[C@H]2OS(=O)(=O)O)[C@H](O)[C@H]1NS(=O)(=O)O`, the IC50 was 55 µg/mL (≈ 30 µM) (viral spread; human corneal epithelial cells, GFP reporter; 24 h, added 2 h post infection).
For `CCOC(=O)[C@@H](C)NP(=O)(CO[C@H](CF)Cn1cnc(N)nc1=O)N[C@H](C)C(=O)OCC`, the EC50 was > 100 µM (cytopathic effect; HEL, KOS, TK-deficient, acyclovir-resistant).
`CCCCCCCCCC(=O)OCC1OC(n2cc(C)c(=O)[nH]c2=O)CC1N(C)C` (centres unmarked) has an EC50 of > 0.23 µM (viral replication; HEL, TK- KOS ACV-resistant).
The EC50 of `O=C1/C(=N\NC(=S)NN=Cc2cccs2)c2ccccc2N1Cc1ccccc1` is reported as > 20 µM (viral cytopathogenicity; HEL, KOS TK-deficient acyclovir-resistant).
